Experimental data from different studies.
Lines come from different studies, so protocols differ. Values joined by “and” are separate records of one study, mostly repeats; a detail may differ. Numbers after ± are the reported error.
B1: recombinant human GDNF; sequence looked up; chain SPDKQMAVLPRRERNRQAAAANPENSRGKGRRGQRGKNRGCVLTAIHLNVTDLGLGYETKEELIFRYCSGSCDAAETTYDKILKNLSRNRRLVSDKVGQACCRPIAFDDDLSFLDDNLVYHILRKHSAKRCGCI
B2: interferon gamma; sequence looked up; chain QDPYVKEAENLKKYFNAGHSDVADNGTLFLGILKNWKEESDRKIMQSQIVSFYFKLFKNFKDDQSIQKSVETIKEDMNVKFFNSNKKKRDDFEKLTNYSVTDLNVQRKAIHELIQVMAELSPAAKTGKRKRSQMLFRG

heparin sodium — PT AUEC (human; intravenous infusion, 8 IU/kg/h, day 1 to 6): 1830 h·s
B1 (recombinant human GDNF) — TH-immunoreactive cell number (stereology, optical fractionator, refers to: tyrosine hydroxylase; rat, 6-OHDA lesion model, substantia nigra pars compacta, lesioned side; 3 µg/24 h): 130 ± 23.9
liraglutide — serum cholesterol (Wistar rat, female, diet-induced obese, blood, fasted; subcutaneous, dose not given, after 4 weeks treatment): 78 ± 4.3 mg/dL
DNA topoisomerase 2-beta (human) — log2 fold change (CYB5R4 knockout human cells; PP4 interaction, 3xFLAG-PP4C IP-MS; concentration not given; baseline: CYB5R4 KO over parental): -1.68
B2 (interferon gamma) — urine albumin/creatinine ratio AUC (proteinuria inducer; FVB mice; dose not given, 0 to 72 h): 481 and 293 and 738 and 348 and 625 and 533
human Ku80 — log2 fold change (CYB5R4 knockout human cells; PP4 interaction, 3xFLAG-PP4C IP-MS; concentration not given; baseline: CYB5R4 KO over parental): -0.1
maraviroc — protein level (Western blot, refers to: GSK-3β phospho-Tyr216; mice, NSG hu-PBL, HIV-infected, somatosensory cortex; i.p., 120 mg/kg twice daily, 3 weeks post infection, normalised to total GSK-3β; baseline: HIV-infected untreated mice, decrease): 5.2 fold
semaglutide — caloric intake (Wistar rat, male, diet-induced obese; subcutaneous, last 5 days of treatment): 79.6 ± 2.8 kcal/day
cotadutide — metabolite level (metabolomics, refers to: hepatic proline; ob/ob mice on AMLN diet, NASH model, liver; dose not given): 1.02 ± 0.06 scaled intensity
difelikefalin — PGIC much improved (Japanese haemodialysis patients with pruritus; intravenous, 1.0 µg/kg, 8 weeks): 38.3%
